Measured values pooled from the literature.
A part holds a random share of what one study measured.
UniProt Q9Y2K2, sequence (whole entry, looked up): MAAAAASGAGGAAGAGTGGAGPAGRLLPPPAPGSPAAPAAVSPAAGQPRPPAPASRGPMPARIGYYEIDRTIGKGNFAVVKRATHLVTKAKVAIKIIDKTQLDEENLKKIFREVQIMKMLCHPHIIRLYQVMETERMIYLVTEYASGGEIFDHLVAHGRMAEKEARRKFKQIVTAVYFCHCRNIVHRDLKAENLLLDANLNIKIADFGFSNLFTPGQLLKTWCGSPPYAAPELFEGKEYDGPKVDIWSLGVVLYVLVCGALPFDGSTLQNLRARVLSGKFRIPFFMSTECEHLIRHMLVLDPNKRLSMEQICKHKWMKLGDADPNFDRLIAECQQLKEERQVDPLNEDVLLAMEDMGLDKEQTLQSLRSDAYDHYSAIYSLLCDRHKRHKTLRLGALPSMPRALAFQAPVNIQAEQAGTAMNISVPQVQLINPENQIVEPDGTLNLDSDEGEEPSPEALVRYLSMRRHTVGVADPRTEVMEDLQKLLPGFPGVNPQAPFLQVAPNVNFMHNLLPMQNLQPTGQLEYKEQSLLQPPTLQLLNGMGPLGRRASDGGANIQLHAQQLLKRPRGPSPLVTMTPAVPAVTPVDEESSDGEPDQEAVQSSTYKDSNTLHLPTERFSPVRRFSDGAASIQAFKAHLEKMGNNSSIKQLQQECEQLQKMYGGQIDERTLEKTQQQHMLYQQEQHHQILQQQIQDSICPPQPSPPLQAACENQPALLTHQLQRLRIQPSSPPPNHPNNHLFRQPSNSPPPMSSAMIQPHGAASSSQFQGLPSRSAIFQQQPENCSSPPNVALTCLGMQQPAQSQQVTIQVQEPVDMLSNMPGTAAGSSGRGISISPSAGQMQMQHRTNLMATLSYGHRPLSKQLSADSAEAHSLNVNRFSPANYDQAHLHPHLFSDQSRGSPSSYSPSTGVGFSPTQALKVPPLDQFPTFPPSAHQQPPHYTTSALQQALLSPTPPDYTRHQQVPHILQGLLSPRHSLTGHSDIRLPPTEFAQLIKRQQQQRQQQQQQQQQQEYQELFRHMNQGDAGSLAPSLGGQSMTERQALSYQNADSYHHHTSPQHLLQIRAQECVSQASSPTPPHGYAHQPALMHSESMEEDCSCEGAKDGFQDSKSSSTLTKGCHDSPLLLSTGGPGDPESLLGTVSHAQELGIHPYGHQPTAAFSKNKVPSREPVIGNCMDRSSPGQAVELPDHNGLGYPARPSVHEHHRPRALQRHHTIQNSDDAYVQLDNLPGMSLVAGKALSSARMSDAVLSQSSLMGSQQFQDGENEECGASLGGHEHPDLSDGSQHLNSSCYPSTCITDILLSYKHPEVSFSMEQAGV
UniProt P08581, sequence (whole entry, looked up): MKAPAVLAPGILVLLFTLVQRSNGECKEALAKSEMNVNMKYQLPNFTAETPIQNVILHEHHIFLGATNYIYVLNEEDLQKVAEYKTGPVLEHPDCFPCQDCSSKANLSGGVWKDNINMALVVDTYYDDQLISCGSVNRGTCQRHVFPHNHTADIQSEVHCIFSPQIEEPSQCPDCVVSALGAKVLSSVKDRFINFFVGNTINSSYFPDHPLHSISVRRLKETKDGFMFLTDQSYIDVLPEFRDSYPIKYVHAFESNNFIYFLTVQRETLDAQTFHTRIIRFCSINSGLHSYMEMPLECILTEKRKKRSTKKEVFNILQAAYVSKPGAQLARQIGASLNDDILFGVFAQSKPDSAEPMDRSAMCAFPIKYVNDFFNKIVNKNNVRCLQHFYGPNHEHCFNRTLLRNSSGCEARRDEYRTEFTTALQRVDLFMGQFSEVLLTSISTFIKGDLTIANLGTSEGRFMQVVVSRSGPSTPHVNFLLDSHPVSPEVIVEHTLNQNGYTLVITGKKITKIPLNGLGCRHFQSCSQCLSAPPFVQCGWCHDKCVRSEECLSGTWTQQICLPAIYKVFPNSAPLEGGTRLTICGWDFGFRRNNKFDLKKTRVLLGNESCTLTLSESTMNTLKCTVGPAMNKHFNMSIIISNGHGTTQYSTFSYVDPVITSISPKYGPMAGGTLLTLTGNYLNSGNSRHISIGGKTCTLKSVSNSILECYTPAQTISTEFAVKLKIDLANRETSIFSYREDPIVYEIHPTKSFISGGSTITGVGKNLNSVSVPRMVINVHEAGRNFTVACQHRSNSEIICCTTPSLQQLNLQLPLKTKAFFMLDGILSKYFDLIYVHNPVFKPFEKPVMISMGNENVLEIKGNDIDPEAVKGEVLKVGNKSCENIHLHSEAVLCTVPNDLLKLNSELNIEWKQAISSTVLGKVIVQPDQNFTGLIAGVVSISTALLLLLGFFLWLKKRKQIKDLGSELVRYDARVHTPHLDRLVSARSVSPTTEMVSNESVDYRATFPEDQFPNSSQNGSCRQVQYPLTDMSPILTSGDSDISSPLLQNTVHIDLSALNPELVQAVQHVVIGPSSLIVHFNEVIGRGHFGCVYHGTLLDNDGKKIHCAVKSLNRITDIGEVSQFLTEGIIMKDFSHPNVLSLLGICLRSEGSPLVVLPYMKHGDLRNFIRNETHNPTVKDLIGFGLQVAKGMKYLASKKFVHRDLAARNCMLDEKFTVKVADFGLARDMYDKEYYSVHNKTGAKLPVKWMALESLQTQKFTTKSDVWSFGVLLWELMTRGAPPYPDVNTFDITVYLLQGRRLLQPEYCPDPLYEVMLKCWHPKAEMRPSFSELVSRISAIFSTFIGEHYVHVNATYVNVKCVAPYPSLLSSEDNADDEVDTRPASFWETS
UniProt P00519, sequence (whole entry, unmodified, looked up): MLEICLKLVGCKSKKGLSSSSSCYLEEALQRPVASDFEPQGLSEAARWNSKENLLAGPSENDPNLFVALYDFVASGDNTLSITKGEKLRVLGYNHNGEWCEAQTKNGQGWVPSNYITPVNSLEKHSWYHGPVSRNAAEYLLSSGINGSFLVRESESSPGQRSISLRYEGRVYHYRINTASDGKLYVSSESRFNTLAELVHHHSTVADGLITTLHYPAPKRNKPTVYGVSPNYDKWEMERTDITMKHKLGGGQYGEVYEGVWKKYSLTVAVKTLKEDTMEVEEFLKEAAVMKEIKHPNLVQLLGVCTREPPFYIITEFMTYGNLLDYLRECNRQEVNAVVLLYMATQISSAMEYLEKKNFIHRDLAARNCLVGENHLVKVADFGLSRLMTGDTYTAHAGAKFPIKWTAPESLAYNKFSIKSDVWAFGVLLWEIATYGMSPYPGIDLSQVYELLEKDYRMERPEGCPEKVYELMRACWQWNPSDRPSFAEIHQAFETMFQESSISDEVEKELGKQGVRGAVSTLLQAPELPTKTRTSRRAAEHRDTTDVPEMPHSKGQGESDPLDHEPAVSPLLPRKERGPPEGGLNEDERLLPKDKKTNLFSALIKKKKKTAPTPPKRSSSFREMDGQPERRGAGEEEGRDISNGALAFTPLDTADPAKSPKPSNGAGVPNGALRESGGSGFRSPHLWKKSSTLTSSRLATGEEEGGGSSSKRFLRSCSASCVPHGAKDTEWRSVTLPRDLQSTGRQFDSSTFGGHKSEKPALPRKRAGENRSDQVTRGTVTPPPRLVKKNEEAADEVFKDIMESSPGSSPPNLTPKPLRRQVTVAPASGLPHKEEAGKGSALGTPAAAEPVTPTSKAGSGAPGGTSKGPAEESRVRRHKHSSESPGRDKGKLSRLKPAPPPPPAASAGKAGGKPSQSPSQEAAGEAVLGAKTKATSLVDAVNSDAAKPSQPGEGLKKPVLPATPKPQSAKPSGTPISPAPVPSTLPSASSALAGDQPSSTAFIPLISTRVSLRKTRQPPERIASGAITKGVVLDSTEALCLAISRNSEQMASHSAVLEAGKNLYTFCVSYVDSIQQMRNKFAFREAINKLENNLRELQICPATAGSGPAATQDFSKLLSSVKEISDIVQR
UniProt P46734, sequence (whole entry, looked up): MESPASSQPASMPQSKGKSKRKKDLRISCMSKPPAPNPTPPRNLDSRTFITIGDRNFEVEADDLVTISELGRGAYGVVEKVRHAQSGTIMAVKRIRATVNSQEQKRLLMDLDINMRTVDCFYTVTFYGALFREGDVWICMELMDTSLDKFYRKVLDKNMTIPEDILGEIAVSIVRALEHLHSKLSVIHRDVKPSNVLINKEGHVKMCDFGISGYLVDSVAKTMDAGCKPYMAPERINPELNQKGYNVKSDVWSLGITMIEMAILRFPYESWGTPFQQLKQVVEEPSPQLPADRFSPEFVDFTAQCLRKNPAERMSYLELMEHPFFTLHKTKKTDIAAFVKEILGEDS
UniProt Q05655, sequence (whole entry, looked up): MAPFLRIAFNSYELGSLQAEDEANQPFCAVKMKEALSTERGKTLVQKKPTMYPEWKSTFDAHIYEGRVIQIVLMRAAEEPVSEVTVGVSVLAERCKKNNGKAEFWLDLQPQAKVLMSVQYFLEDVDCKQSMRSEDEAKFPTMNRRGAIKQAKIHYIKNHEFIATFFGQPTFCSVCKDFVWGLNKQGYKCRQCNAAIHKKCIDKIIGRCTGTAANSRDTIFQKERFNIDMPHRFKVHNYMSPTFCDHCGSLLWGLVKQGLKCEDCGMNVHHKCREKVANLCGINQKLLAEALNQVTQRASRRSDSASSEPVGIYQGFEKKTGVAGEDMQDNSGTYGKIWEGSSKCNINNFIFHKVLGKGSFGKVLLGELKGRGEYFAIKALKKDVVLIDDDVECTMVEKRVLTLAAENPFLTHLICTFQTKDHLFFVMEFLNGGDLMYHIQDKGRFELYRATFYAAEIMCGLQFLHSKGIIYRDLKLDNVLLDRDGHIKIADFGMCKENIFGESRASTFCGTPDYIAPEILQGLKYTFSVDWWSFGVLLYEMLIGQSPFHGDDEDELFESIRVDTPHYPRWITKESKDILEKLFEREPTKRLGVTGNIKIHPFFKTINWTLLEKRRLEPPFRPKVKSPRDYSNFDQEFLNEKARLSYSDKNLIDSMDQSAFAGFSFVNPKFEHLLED

Sample 1
SMILES: CNCc1ccccc1-c1csc([C@H](C)Nc2nc(C)nc3cc(OC)c(OC)cc23)c1
Tested at: 1 µM
| target | test | remaining binding [%] |
| --- | --- | --- |
| PRKAA1 (Homo sapiens, UniProt Q13131) | cell-free assay, competition with immobilised ligand | 93 |
| Tyrosine-protein kinase ABL1, phosphorylated (ABL1, Homo sapiens, UniProt P00519, F317I) | binding | 80 |
| MAP2K4 (Homo sapiens, UniProt P45985) | cell-free assay, competition with immobilised ligand | 100 |
| MELK (Homo sapiens, UniProt Q14680) | cell-free assay, competition with immobilised ligand | 74 |
| YES1 (Homo sapiens, UniProt P07947) | cell-free assay, competition with immobilised ligand | 100 |
| MAP2K3 (Homo sapiens, UniProt P46734) | cell-free assay, competition with immobilised ligand | 98 |
| SIK3 (Homo sapiens, UniProt Q9Y2K2) | cell-free assay, competition with immobilised ligand | 78 |
| Ribosomal protein S6 kinase alpha-4, C-terminal kinase domain (RPS6KA4, Homo sapiens, UniProt O75676) | cell-free assay, competition with immobilised ligand | 100 |
| EPHA1 (Homo sapiens, UniProt P21709) | cell-free assay, competition with immobilised ligand | 100 |
| MET (Homo sapiens, UniProt P08581) | cell-free assay, competition with immobilised ligand | 100 |
| PRKCD (Homo sapiens, UniProt Q05655) | cell-free assay, competition with immobilised ligand | 100 |
| FGFR3 (Homo sapiens, UniProt P22607) | cell-free assay, competition with immobilised ligand | 98 |
| ACVRL1 (Homo sapiens, UniProt P37023) | cell-free assay, competition with immobilised ligand | 100 |

Sample 2
Compound: COc1cc(C(=O)N2CCC(N3CCN(C)CC3)CC2)ccc1Nc1ncc2c(n1)N(C)c1ccccc1C(=O)N2C
| target | test | test system | conditions | inhibition |
| --- | --- | --- | --- | --- |
| mouse CK1δ and CK1ε | probe labelling, KiNativ ATP probe | mouse brain lysate | 0.1 µM, LYS2 site | 12.5% |
| PIP5K1C (mouse) | KiNativ ADP probe | mouse brain tissue | 0.1 µM, ATP site probe | 6.5% |
| CSK mouse | KiNativ profiling | mouse brain lysate | 0.1 µM, activation loop site, together with: ADP acyl phosphate probe | 2.6% |
| Lyn (Mus musculus, UniProt P25911) | enzyme activity, inhibitor |  | 1 µM | -12.9% |
| CDK5 (mouse) | probe labelling, KiNativ ATP probe | mouse brain lysate | 0.1 µM, LYS2 labelled site | -1.6% |
| mouse ROCK1 and ROCK2 | probe labelling, KiNativ ATP probe | mouse brain lysate | 1 µM, LYS2 site DVkPDNMLLDK | -4.4% |

Sample 3
Target: Testis-specific serine/threonine-protein kinase 1 (TSSK1B, Homo sapiens, UniProt Q9BXA7)
Observed: enzyme activity
Mode: inhibitor
Tested at: 0.5 µM
Baseline: control
Construct (Q9BXA7 1-367): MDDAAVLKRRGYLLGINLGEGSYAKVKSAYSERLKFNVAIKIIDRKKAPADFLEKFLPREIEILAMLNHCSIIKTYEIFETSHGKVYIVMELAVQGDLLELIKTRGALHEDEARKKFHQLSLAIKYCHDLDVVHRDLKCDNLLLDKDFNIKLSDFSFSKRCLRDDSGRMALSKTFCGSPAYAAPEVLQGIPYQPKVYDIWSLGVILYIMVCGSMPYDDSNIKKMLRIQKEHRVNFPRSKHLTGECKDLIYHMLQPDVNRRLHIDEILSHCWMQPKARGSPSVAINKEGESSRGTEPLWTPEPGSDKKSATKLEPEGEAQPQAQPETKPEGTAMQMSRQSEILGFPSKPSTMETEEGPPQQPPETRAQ
| SMILES | remaining activity |
| --- | --- |
| CCCC(=O)Oc1ccc2[nH]c(C(=O)c3cc4ccccc4[nH]3)cc2c1 | 78.1% |
| COc1cc(Nc2c(C#N)cnc3cc(OCCCN4CCN(C)CC4)c(OC)cc23)c(Cl)cc1Cl | 79.2% |
| Cc1ccc(NC2=CC(=O)c3sc(C)nc3C2=O)cc1 | 115% |
| Oc1ccc(Nc2nc(-c3ccc(Cl)cc3)cs2)cc1 | 119% |
| CC(C)(C)n1nc(Cc2cccc3ccccc23)c2c(N)ncnc21 | 91.7% |
| CCc1[nH]c(-c2ccc(OC)cc2)nc1-c1ccncc1 | 106% |
| CC#CC(=O)Nc1cc2c(Nc3ccc(F)c(Cl)c3)ncnc2cn1 | 104% |
| Fc1ccc(-c2nc3n(c2-c2ccncc2)CCS3)cc1 | 119% |
| O=C1NC(=O)C(c2c[nH]c3ccccc23)=C1c1c[nH]c2ccccc12 | 106% |
| Nc1ncnc2c1cnn2-c1ccccc1 | 84.1% |
| Cc1cncc2cccc(S(=O)(=O)N3CCCN(C(=O)CN)C[C@@H]3C)c12 | 103% |

Sample 4
Species: mouse
Matrix: microsomes or S9
Tested at: 2 µM
Time: 0.5 h
| Structure (SMILES) | remaining compound [%] |
| --- | --- |
| Cc1nc(O)[nH]c(=O)c1S(=O)(=O)Nc1ccccc1C(=O)NCc1ccccc1 | 98.9 |
| CC(=O)Nc1cc2ccc(OC(C)=O)cc2oc1=O | 2.89 |
| Cc1cccc2c1ccn2CC(=O)N1CCNC(=O)C1 | 75.2 |
| Fc1cnc(Nc2ccccc2Cl)nc1Nc1ccccc1Cl | 61.1 |
| Cc1ccccc1N1CCN(C2CCc3occc3C2=O)CC1 (centres unmarked) | 0.0403 |
| CCOc1ccc(C(=O)C2=CN(c3ccc(C#N)cc3)c3ccccc3S2(=O)=O)cc1 | 33 |
| CC(C)CCn1c(N)nc2c1c(=O)nc(O)n2C | 79 |
| CCOc1ccc(-c2nnc3c4cc(OC)c(OC)cc4n(Cc4ccc(Cl)cc4)cc2-3)cc1 | 95.2 |
| Cc1ccc(C/N=C2\C(c3ccc(F)c(F)c3)=Nc3ncnn32)cc1 | 74.2 |
| c1ccc(-c2nc3ccccc3nc2N2CCCC2)cc1 | 7.92 |
| COCc1cc(=O)n2c(n1)N(Cc1cccc(C#N)c1)CC2 | 87.6 |
